Results gathered from unrelated publications.
Parts stem from different laboratories: compare values within a part only.
Sequence of UniProt P11802 (whole entry, looked up): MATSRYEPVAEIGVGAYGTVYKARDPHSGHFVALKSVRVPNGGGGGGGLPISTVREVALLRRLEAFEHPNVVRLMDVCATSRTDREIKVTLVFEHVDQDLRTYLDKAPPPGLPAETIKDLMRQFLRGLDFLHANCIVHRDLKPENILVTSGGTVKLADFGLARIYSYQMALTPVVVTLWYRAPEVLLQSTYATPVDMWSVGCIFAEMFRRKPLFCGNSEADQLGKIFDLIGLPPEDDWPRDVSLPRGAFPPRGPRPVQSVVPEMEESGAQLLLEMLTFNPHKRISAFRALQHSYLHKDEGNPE
Sequence of UniProt Q99683 (whole entry, looked up): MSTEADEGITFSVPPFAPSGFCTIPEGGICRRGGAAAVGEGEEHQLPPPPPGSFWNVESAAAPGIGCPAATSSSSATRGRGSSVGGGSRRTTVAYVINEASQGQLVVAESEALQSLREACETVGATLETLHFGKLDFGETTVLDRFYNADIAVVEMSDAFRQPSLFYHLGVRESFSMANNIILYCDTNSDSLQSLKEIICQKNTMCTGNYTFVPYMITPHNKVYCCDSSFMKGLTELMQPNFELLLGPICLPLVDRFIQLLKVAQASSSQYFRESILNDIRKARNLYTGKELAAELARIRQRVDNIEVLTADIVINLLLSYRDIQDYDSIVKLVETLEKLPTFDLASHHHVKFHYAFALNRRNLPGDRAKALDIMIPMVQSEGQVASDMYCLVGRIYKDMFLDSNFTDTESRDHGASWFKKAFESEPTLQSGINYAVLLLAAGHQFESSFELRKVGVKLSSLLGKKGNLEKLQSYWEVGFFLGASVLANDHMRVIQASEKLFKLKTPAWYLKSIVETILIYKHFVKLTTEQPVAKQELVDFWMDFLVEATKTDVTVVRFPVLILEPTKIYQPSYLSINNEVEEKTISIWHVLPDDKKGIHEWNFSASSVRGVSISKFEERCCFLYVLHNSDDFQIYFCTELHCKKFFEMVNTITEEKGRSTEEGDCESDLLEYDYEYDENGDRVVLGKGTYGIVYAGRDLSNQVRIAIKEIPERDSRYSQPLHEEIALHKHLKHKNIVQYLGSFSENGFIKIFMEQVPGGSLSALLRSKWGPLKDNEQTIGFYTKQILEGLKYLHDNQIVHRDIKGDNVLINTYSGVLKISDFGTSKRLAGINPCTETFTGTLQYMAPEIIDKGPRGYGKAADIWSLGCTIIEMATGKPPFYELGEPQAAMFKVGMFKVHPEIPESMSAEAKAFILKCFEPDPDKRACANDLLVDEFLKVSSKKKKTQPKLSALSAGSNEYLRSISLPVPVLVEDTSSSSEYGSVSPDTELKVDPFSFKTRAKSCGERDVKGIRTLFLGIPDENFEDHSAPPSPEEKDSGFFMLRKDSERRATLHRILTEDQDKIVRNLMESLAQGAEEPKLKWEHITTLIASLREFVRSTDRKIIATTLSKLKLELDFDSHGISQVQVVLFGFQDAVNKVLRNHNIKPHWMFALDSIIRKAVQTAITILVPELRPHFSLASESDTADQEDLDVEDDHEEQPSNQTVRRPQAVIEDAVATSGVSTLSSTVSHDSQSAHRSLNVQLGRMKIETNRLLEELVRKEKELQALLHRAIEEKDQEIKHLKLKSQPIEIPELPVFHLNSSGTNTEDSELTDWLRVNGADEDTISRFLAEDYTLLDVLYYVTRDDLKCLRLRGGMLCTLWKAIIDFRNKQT
Sequence of UniProt P00519 (whole entry, unmodified, looked up): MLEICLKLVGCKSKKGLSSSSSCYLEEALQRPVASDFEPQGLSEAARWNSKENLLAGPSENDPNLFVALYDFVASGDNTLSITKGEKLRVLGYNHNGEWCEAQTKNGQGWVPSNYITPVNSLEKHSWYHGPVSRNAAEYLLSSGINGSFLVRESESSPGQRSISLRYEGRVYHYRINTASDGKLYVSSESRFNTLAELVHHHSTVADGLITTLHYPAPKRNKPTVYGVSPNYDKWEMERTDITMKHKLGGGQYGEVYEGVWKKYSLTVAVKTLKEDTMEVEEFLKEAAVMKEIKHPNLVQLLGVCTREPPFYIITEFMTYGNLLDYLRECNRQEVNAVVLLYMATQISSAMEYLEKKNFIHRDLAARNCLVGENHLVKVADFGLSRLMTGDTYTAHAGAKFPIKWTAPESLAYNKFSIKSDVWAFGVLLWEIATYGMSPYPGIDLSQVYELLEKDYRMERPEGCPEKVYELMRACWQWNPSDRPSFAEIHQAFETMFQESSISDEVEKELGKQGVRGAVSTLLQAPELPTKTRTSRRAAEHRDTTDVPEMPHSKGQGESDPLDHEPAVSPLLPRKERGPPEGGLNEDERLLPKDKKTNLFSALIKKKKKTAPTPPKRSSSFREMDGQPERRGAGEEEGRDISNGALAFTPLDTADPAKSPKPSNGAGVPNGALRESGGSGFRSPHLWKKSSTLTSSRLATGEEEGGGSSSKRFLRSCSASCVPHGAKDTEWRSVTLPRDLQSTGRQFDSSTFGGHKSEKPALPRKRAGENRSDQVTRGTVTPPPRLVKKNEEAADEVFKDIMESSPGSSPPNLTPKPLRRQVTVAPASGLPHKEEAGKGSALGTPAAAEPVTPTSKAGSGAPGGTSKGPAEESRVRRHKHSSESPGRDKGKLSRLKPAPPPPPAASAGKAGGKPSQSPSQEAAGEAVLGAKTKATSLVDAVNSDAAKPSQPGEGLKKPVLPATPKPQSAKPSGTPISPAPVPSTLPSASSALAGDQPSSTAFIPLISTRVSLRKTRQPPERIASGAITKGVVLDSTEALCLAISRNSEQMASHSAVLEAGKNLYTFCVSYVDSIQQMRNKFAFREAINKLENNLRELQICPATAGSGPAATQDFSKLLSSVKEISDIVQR
Sequence of UniProt P25098 (whole entry, looked up): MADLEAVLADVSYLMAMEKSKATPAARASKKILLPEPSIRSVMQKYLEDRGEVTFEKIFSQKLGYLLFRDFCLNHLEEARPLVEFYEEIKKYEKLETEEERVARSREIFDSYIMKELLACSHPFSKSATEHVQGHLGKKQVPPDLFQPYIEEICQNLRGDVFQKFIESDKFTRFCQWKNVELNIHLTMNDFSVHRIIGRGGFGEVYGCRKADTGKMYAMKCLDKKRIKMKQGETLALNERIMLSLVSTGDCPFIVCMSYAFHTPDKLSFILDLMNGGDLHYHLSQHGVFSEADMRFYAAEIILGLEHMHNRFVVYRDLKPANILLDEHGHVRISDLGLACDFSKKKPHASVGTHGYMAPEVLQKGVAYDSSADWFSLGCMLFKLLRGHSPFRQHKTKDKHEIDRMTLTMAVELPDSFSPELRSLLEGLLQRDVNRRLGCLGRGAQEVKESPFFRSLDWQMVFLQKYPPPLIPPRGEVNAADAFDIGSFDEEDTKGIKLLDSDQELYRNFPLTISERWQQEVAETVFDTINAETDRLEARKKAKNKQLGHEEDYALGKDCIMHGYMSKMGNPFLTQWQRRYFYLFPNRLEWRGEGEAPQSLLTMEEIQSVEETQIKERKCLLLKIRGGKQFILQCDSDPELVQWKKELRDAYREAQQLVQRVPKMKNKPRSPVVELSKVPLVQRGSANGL
Sequence of UniProt P22607 (whole entry, looked up): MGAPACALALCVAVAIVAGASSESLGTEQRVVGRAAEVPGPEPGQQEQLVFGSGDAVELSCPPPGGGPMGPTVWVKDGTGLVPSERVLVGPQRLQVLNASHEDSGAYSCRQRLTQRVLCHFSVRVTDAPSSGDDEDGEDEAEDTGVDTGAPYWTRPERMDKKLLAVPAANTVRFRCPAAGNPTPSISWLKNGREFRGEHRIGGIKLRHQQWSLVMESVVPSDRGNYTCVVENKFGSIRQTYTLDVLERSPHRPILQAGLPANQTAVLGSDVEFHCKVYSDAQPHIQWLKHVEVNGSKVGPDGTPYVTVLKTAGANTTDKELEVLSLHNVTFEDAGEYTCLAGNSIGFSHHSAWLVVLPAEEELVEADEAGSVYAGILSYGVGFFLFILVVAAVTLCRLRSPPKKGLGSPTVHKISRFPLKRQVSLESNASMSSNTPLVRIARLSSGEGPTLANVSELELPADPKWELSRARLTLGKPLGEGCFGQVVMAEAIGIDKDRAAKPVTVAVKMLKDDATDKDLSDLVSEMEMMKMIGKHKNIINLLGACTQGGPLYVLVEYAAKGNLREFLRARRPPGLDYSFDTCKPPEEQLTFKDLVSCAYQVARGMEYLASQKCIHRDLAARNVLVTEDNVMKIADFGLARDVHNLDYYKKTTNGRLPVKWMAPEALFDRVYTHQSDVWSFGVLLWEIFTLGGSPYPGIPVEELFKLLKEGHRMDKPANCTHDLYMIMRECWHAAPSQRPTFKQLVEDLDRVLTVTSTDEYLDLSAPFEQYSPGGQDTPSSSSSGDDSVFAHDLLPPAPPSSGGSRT
Sequence of UniProt P15735 (whole entry, looked up): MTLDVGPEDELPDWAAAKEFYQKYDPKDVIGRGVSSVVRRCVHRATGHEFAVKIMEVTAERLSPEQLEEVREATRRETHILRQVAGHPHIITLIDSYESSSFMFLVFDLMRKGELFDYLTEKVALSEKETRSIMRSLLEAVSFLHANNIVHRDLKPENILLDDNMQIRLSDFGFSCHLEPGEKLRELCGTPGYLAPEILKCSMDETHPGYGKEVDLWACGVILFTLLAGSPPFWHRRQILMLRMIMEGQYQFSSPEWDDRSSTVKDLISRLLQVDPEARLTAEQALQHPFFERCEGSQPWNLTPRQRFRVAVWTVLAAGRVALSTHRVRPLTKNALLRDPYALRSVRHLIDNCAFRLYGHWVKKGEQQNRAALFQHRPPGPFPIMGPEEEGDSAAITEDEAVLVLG

Study 1
Cell line: A-375
Concentration: 100 µM
Time: 18 h
Endpoint: viability
N=C(N)NC(=O)Cc1c(Cl)cccc1Cl: 80.6%
O=C(O)CCC(=O)Nc1ccc(S(=O)(=O)Nc2nccs2)cc1: 94.7%
O=C(OCc1ccccc1)c1ccccc1: 34.2%
O=C1c2cccc3c2[C@H](CCC3)CN1[C@@H]1CN2CCC1CC2: 57.1%
NC[C@H]1O[C@H](O[C@H]2[C@H](O[C@@H]3O[C@H](CO)[C@@H](O)[C@H]3O)[C@@H](O)[C@H](N)C[C@@H]2N)[C@H](N)[C@@H](O)[C@@H]1O: 93.5%
CC[C@H](C)C(=O)O[C@H]1CCC=C2C=C[C@H](C)[C@H](CC[C@@H]3C[C@@H](O)CC(=O)O3)[C@H]21: 10.5%
CNCCCN1c2ccccc2CCc2ccccc21: 10%
CNC[C@H](O)c1ccc(O)c(O)c1: 141%
COC(=O)C1=C(C)NC(C)=C(C(=O)OCCN(C)Cc2ccccc2)C1c1cccc([N+](=O)[O-])c1 (stereo not drawn): 20.2%
Cc1coc2c1C(=O)C(=O)c1c-2ccc2c(C)cccc12: 35.5%

Study 2
SMILES: CCCOc1ccc([C@H]2[C@H](C(=O)O)[C@@H](c3ccc4c(c3)OCO4)CN2CC(=O)Nc2c(CC)cccc2CC)cc1
Technique: competition with immobilised ligand
Concentration: 1 µM
Endpoint: remaining binding
PHKG2 (Homo sapiens, UniProt P15735); cell-free assay: 86%
SIK3 (Homo sapiens, UniProt Q9Y2K2); cell-free assay: 71%
FER (Homo sapiens, UniProt P16591); cell-free assay: 100%
Tyrosine-protein kinase ABL1, phosphorylated (ABL1, Homo sapiens, UniProt P00519, E255K); binding: 70%
BLK (Homo sapiens, UniProt P51451); cell-free assay: 88%
MAP3K5 (Homo sapiens, UniProt Q99683); cell-free assay: 91%
TIE1 (Homo sapiens, UniProt P35590); cell-free assay: 94%
CDK4 (Homo sapiens, UniProt P11802); cell-free assay: 100%
FES (Homo sapiens, UniProt P07332); cell-free assay: 96%
FGFR3 (Homo sapiens, UniProt P22607); cell-free assay: 100%
KIT (Homo sapiens, UniProt P10721); cell-free assay: 85%
GRK2 (Homo sapiens, UniProt P25098); cell-free assay: 51%
BUB1 (Homo sapiens, UniProt O43683); cell-free assay: 98%
CAMK2A (Homo sapiens, UniProt Q9UQM7); cell-free assay: 90%
MET (Homo sapiens, UniProt P08581); cell-free assay: 100%

Study 3
Organism: Sarcocystis neurona
Effect on: parasite growth
Concentration: 10 µM
Time: 96 h
Reference: untreated
Endpoint: log2 fold change
CN1CCN(C2=Nc3ccccc3Oc3ccc(Cl)cc32)CC1: 0.24
CSc1ccc2c(c1)N(CCC1CCCCN1C)c1ccccc1S2 (stereo not drawn): -0.69
O=c1[nH]c(=O)n(C2CCCO2)cc1F (stereo not drawn): -0.0751
CCCN1CCCC[C@H]1C(=O)Nc1c(C)cccc1C: 0.24
CCC1=C(C)CN(C(=O)NCCc2ccc(S(=O)(=O)NC(=O)N[C@H]3CC[C@H](C)CC3)cc2)C1=O: 0.46
CCc1c(C)[nH]c2c1C(=O)C(CN1CCOCC1)CC2 (stereo not drawn): 0.33
COc1ccc2c3c1O[C@H]1C[C@@H](O)C=C[C@@]31CCN(C)C2: 0.28
CCN(CC)CCOc1ccc(C(=C(Cl)c2ccccc2)c2ccccc2)cc1: -0.0452
CC1(C)O[C@@H]2C[C@H]3[C@@H]4CCC5=CC(=O)C=C[C@]5(C)[C@@]4(F)[C@@H](O)C[C@]3(C)[C@]2(C(=O)CO)O1: 0.33
CC(=O)OCC(=O)[C@@]1(O)CC[C@H]2[C@@H]3CCC4=CC(=O)CC[C@]4(C)[C@H]3[C@@H](O)C[C@@]21C: -0.08

Other studies, line by line
CCC[C@H]1NC(=O)CSC[C@@H](C(=O)OCC)N(C)C(=O)[C@H](CC(C)C)NC(=O)[C@@H](C)N(C)C(=O)[C@H](CC(C)C)NC(=O)[C@H](C)N(C)C(=O)[C@H]2CCCN2C(=O)[C@H](CC(C)C)NC(=O)CN(CCC)C1=O  logD (hydrocarbon/water): 1.45
